# Experimental data pooled from the literature.
# Organism: Streptococcus pneumoniae
Structure (SMILES),read-out,technique,strain,MIC
Oc1c(Br)cc(Br)c2nc3cc(I)ccc3nc12,microbial growth,broth dilution,6303,0.2 µM
c1ccc(CN2CCOCCOCCN(CCCCCCCCCCN3CCOCCOCCN(CCCCCCCCCCN4CCOCCOCCN(Cc5ccccc5)CCOCCOCC4)CCOCCOCC3)CCOCCOCC2)cc1,,,R:Pen,6 µM
CC(C)CNCc1cc(N(C)C)c2c(c1O)C(=O)C1=C(O)[C@]3(O)C(=O)C(C(N)=O)=C(O)[C@@H](N(C)C)[C@@H]3C[C@@H]1C2,microbial growth,broth dilution,,0.25 µg/mL
c1ccc(CN2CCOCCOCCN(CCCCCCCCCCCCCCN3CCOCCOCCN(CCCCCCCCCCCCCCN4CCOCCOCCN(Cc5ccccc5)CCOCCOCC4)CCOCCOCC3)CCOCCOCC2)cc1,microbial growth,,,6 µM
COCCNCc1cc(N(C)C)c2c(c1O)C(=O)C1=C(O)[C@]3(O)C(=O)C(C(N)=O)=C(O)[C@@H](N(C)C)[C@@H]3C[C@@H]1C2,,,"ATCC 700905, Tet M ribosome protection",0.5 µg/mL
CNC1=C([N+](=O)[O-])C2(C(=O)Nc3ccc(Cl)cc32)C2=C(O1)C(=O)c1ccccc1C2=O (stereo not shown),,,MTCC 655,125 µg/mL
CC(/C=C/C(O)=C1/C(=O)CNC1=O)=C\[C@@H](C)[C@H]1O[C@@]2(C)O[C@H](C[C@@H]3O[C@@]32C)[C@@H]1C,,,ATCC 49619,> 100 µM
CN(C)c1cc(CN)c(O)c2c1C[C@H]1C[C@H]3[C@H](N(C)C)C(O)=C(C(N)=O)C(=O)[C@@]3(O)C(O)=C1C2=O,,,"ATCC 700905, Tet M ribosome protection",4 µg/mL
O=C(O)CN1C(=O)/C(=C/c2ccc(-c3ccc(N(c4ccccc4)c4ccccc4)cc3)cc2)NC1=S,,broth microdilution,ATCC 49619,62.5 µg/mL
Oc1c(Br)cc(Br)c2nc3c(C(F)(F)F)cc(C(F)(F)F)cc3nc12,microbial growth,broth dilution,6303,0.08 µM
CC(C=CC(O)=C1C(=O)CNC1=O)=CC(C)C1OC2(C)OC(C1C)C(O)C1OC12C (stereo not shown),,,ATCC 49619,> 100 µM
Oc1c(Br)cc(Br)c2nc3cc(Cl)ccc3nc12,microbial growth,broth dilution,6303,0.2 µM
CN(C)c1cc(CNCc2ccc(O)cc2)c(O)c2c1C[C@H]1C[C@H]3[C@H](N(C)C)C(O)=C(C(N)=O)C(=O)[C@@]3(O)C(O)=C1C2=O,microbial growth,broth dilution,,1 µg/mL

# A few entries again:
Structure (SMILES),read-out,technique,strain,MIC
Oc1c(Br)cc(Br)c2nc3c(C(F)(F)F)cc(C(F)(F)F)cc3nc12,microbial growth,broth dilution,6303,0.08 µM
